# Measurements of several laboratories.
# Lines come from different studies, so protocols differ.
# Cell line: OVCAR-8
SMILES,test,setting,how to read,endpoint,result
O=C(/C=C/C=C/C=C/C1CCCCC1)NC1=C[C@@](O)(/C=C/C=C/C=C/C(=O)NC2=C(O)CCC2=O)[C@@H]2O[C@@H]2C1=O,"cell growth, CellTiter-Glo",78 h,,GI50,16.7 µM
CCCCN1CCN(c2ccc3[nH]c(-c4ccc5[nH]c(-c6cc(OC)c(OC)c(OC)c6)nc5c4)nc3c2)CC1,SRB,"10 µM, 48 h",,growth percent,56.2%
C#C[C@@]1(O)[C@@H](CO)O[C@@H](n2cc(Br)c3c(N)ncnc32)[C@@H]1O,SRB,NCI-60 screen,,TGI,1.12 µM
Cn1cncc1C1=CN(c2ncnc3[nH]cnc23)CCS1,,ovarian cancer,,TGI,155 µM
Cc1n[nH]c2nc(-c3ccc(Cl)cc3)c3c(NC(=O)c4ccccc4)nnc-3n12,SRB,"10 µM, NCI60 single-dose screen",relative to: untreated,cell growth,106%
CCCN1CCN(c2ccc3[nH]c(-c4ccc5[nH]c(-c6ccc(OCC)c(OCC)c6)nc5c4)nc3c2)CC1,SRB,"10 µM, 48 h",,growth percent,-11%
S=C([S][Au-][P+](CCCCCC[P+]([Au-][S]C(=S)n1cccn1)(c1ccccc1)c1ccccc1)(c1ccccc1)c1ccccc1)n1cccn1,"cell growth, NCI-60 screen",ovarian cancer,,log10 TGI,> -4
O=C(Nc1nnc2n3c(=S)[nH][nH]c3nc(-c3ccc(Cl)cc3)c1-2)c1ccccc1,SRB,"10 µM, NCI60 single-dose screen",relative to: untreated,cell growth,91.6%
O=C1NC(=NCc2cccs2)S/C1=C\c1ccc2ncccc2c1,MTS,NCI60 panel,,IC50,> 10 µM
CCCCN1CCN(c2ccc3[nH]c(-c4ccc5[nH]c(-c6ccc(C(F)(F)F)cc6)nc5c4)nc3c2)CC1,SRB,"10 µM, 48 h",,growth percent,-40.5%
O=C(Nc1nnc2[nH]c(=S)[nH]c(-c3ccc(Cl)cc3)c1-2)c1ccccc1,SRB,"10 µM, NCI60 single-dose screen",relative to: untreated,cell growth,104%
CCCCN1CCN(c2ccc3[nH]c(-c4ccc5[nH]c(-c6ccc(OCC)cc6)nc5c4)nc3c2)CC1,SRB,"10 µM, 48 h",,growth percent,70.1%
NNc1nc(-c2ccc(Cl)cc2)c2c(NC(=O)c3ccccc3)nnc-2[nH]1,SRB,"10 µM, NCI60 single-dose screen",relative to: untreated,cell growth,106%

# A few entries again:
SMILES,test,setting,how to read,endpoint,result
O=C(Nc1nnc2[nH]c(=S)[nH]c(-c3ccc(Cl)cc3)c1-2)c1ccccc1,SRB,"10 µM, NCI60 single-dose screen",relative to: untreated,cell growth,104%
CCCCN1CCN(c2ccc3[nH]c(-c4ccc5[nH]c(-c6ccc(C(F)(F)F)cc6)nc5c4)nc3c2)CC1,SRB,"10 µM, 48 h",,growth percent,-40.5%
